# Published values gathered from unrelated publications.
# Numbered parts are unrelated; each lists some results of a single study.

# Study 1 — technique: aptamer microarray, sandwich; form: DNA with 2'F-ANA; matrix: in vitro; concentration: 200 nM; added: Cy3 exosite-II aptamer, 400 nM; reading: higher = stronger binding; oligonucleotide: GGTTGGTGTGGTTGG
# Target: Prothrombin, mature alpha-thrombin (F2, Homo sapiens, UniProt P00734)
# Notes: whole 15-mer aptamer, many near background
Modification,mean fluorescence intensity
2'F-ANA at 1 2 3 4 10 12 13 14 15,75.8 a.u.
2'F-ANA at 1 3 4 5 6 8 11 13 14,55 a.u.
2'F-ANA at 1 2 3 4 6 8 9 12 13 14 15,72.4 a.u.
2'F-ANA at 2 4 5 6 10 11 12 14,46.1 a.u.
2'F-ANA at 3 4 8 9 13 14 15,270 a.u.
2'F-ANA at 1 3 4 7 8 9 10 12 14,132 a.u.
2'F-ANA at 3 4 5 6 10,53.3 a.u.
2'F-ANA at 2 3 4 5 9 14,49.5 a.u.
2'F-ANA at 2 4 6 7 8 9 12 13 14,98.2 a.u.
2'F-ANA at 1 2 6 7 9 11 13 14 15,95 a.u.
2'F-ANA at 1 2 6 7 8 10 11 14 15,85 a.u.
2'F-ANA at 1 3 5 9 11 13 14,46.6 a.u.
2'F-ANA at 1 3 4 5 6 7 8 9 10 11 15,82.4 a.u.
2'F-ANA at 1 2 5 6 7 8 9 13,74.5 a.u.
2'F-ANA at 5 6 9 10 11 12 13 15,53.7 a.u.
2'F-ANA at 1 2 4 5 6 11 12 13,65.6 a.u.
2'F-ANA at 2 3 5 6 9 11 12 13 14,57 a.u.
2'F-ANA at 1 2 3 4 5 6 7 11,54.6 a.u.
2'F-ANA at 1 2 4 6 10 11 12 13 14,53.7 a.u.
2'F-ANA at 1 3 4 6 8 10 12 13 15,64.2 a.u.
2'F-ANA at 1 2 3 6 7 12 14 15,88.2 a.u.
2'F-ANA at 1 2 3 5 6 10 11 12 13,54.2 a.u.
2'F-ANA at 2 3 5 6 8 9 10 12 13 14,46.1 a.u.
2'F-ANA at 2 3 5 7 8 13 14,54.3 a.u.
2'F-ANA at 5 6 8 9 11,70.8 a.u.

# Study 2 — technique: protein binding microarray; form: double-stranded DNA, one strand shown; matrix: in vitro; concentration: not given; reference: not given; reading: higher = stronger binding
# Target: Histone acetyltransferase KAT6A, winged helix 2, GST fusion (KAT6A, Homo sapiens, UniProt Q92794, residues 85-181)
# Notes: 8-mer, flanks averaged, mean of 2 arrays, mostly near background
# Residues (chain): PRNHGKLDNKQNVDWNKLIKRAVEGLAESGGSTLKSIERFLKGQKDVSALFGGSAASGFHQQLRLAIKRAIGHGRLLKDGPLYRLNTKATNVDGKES
Oligonucleotide,E-score
CTAGTACC,-0.108
GCCCCCCC,0.0442
ACGTTTCT,-0.0748
CTAGTTAA,-0.0422
CAACACAG,0.0929
CAATAAAA,-0.136
CAAAAACA,0.152
AGCTCGAA,0.0227
AAAAATAA,0.0852
ATTACGTA,-0.174
TCCTACGA,-0.101
GAACTGCC,0.00474
ATCTGATG,-0.0207
ACCAGTAA,-0.00426
AAAGTAAA,-0.144
AGCCCCAA,-0.113
ATGTCTAA,0.0309
ACGCACAT,-0.0761

# Study 3 — technique: RNA Bind-n-Seq; form: RNA; matrix: in vitro; concentration: not given; notes: RNA with constant flanks, ends assumed; reference: input RNA pool; reading: higher = stronger binding
# Target: RING finger protein unkempt homolog, zinc fingers 1-6, GST-SBP tag (UNK, Homo sapiens, UniProt Q9C0B0, residues 30-357)
# UniProt Q9C0B0, sequence (30-357, looked up): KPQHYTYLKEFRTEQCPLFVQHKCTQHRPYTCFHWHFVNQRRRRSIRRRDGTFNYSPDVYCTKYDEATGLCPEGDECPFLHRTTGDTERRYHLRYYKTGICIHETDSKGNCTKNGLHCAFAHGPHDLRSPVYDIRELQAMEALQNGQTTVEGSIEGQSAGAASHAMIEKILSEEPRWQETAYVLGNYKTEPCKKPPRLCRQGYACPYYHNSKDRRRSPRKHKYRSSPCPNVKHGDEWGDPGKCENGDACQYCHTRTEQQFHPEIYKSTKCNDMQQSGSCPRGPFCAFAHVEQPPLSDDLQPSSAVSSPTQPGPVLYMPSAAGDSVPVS
# All sequences stand within: GGGAGUUCUACAGUCCGACGAUC … CAACAGAGGAUUGAGCAUCA
Oligonucleotide,bound/input enrichment [ratio]
AACCUCUGCAAGCUCAUGAAAGAAAUCUUAGAUAAGAAGGUUGAGAAGGUGACAAUCUCCAACCGACUUGUGUCUUCACCUUGCUGCAUUGUGACCAGCACCUACGGCUGGACAGCCAAU,0.16
GAAGCUACAUACCCAAAUACAUAUAUUUUUGACUUAUUUGGAGGUGUUGAUCUUCUUGCCGAAAUUCUUAUGAGGCCUACCAUCUCUAUCCGGGGACAGAAACUAAAAAUAAGUGACGAG,0.35
GGUAUCGCUGUUGAUCACCUUGGCCGCAACAUCUUCUGGACAGACUCUAACCUGGAUCGAACCGAAGUGGCGAAGCUGGACGGCACGCAGCGCCGGGUGCUCUUUGAGACUGACUUGGUG,0.136
AUAAUGAAAACAGUGAAGGGUUUUUUUUAUGUUUCAUUACUUCUUGGCAUUCUGAAGGAGACCGCUGGAAACACCAUAAUUCACAAAACAGAUUCAGAUGAAAAAGUCACAGUGCUGUUU,0.235
GAUUAUGUGCCUGCUUUAAAAGGUUUGGGUGAAUGCCAUCUUAUGAUGGCAAAAGCAGCUCCCGUUGAUUAUCUUGAUGGAAAAGCCGUAGACUACAUAGAAAAAGCACUGGAAUAUUUU,1.41
CCCACGCCCUCCCUCUCCCAGGCCCGAGAUGUGACCCACCAGUGCCUUCUGUCUGCUCGUCCGCUUUAAUCAAUCAUGCCCUGCCUUGUCCCUCUCACUCCCCAGCCCCACCCCUAAGUG,0.991
GAAGAAUUAGAUGCCUUGUUAAACAAUUUCUGUGAACUCUCAGCUCCAGGAGGUGUGGAAAACCGUUAUGGGAAAAUAAAUAUCCUACUUCAAACCUACAUCAGCCGAGGAGAGAUGGAC,0.871
GCAGAAUACCCUGAUGAGUAUCAUGGCGAGUACCAGGAUGACUACCCCAGAGAUUACCAAUACCGCGACCAAGGCAUUGAUUAUUAGAUCCACACAGAAGGAGCUCAGUAUUUAGUCCUU,0.283
UCAGUCUAGCUUUUAAUUAAGUUAUUUUGUAUAGCUUAAUUUGUAAAACAUUUUAUGUUUUUCCGAUGCUUUAUUAAAUACAUGGCCAAACCAAAUAACAUCUUUCAGUAAUUAUAGAAU,8.78
CAUUUGUAUUGUACAUAAAAUUUUCUAGAAAUACACUUUUUUCCAAAGUGUAAGUUUGUGAACCGAUUUUAGCAUGAUGAAACUGUCAUAAUGGUGAAUGUUCAAUCUGUGUAAGAAAAC,0.792
UUAUUUAAGCAUUGAGUGCAUUAGAAUUUAUUUACAGAGUGCAUGAUGUUCUGACUCCCGUUCCGAUUUAUUUAAGAAACCAAAUCUCCAGAUUUUUUCAGGACACAGGAUCUUAGACUU,2.88

# Study 4 — technique: universal PBM; form: double-stranded DNA, one strand shown; matrix: in vitro; concentration: 600 nM; reading: higher = stronger binding
# Target: Sal-like protein 4, full length isoform A (SALL4, Homo sapiens, UniProt Q9UJQ4, residues 1-1053)
# UniProt Q9UJQ4, sequence (whole entry, looked up): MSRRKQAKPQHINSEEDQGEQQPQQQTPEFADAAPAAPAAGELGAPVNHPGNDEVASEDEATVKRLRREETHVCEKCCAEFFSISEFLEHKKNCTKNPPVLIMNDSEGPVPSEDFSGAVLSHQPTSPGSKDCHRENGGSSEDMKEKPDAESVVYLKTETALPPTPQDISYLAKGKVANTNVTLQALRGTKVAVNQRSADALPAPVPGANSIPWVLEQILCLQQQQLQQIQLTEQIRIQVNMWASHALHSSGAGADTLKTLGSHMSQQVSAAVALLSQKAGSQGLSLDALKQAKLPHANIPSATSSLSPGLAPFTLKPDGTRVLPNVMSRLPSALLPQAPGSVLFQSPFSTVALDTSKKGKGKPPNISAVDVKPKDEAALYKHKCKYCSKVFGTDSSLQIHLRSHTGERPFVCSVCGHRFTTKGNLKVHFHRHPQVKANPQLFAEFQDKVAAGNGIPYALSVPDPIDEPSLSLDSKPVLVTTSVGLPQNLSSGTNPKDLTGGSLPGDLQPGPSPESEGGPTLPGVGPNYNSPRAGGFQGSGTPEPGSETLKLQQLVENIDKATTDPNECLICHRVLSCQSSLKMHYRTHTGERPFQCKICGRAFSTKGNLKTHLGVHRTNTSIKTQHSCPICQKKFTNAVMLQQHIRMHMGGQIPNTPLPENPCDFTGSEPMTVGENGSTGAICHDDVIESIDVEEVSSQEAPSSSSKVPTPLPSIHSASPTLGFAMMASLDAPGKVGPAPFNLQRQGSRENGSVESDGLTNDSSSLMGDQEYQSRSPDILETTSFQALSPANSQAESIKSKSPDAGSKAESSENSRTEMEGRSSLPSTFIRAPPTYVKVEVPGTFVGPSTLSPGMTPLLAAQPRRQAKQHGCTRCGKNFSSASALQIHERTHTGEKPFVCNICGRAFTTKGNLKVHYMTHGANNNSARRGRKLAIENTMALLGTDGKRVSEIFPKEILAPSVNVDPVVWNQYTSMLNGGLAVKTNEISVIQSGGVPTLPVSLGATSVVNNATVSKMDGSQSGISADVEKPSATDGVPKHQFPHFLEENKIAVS
# Notes: 8-mer, flanks averaged, mean of replicates
Oligonucleotide,E-score
CCCGGGAA,-0.284
GAGAGAAC,-0.158
CACGTGCA,-0.0999
ATTGTCCA,0.145
ACTCCAAT,-0.0298
CGAAATAA,0.241
CGAAAGGC,-0.0572
CTGCTGAA,-0.0413
CCTGCGAG,-0.153
CTCTACAA,0.076
CAAGAGCG,-0.136
GTATTCCA,0.0333
AACCTGAG,-0.145
GAAGAAGC,-0.121
ATGAGGAC,0.016
TCTAAGCA,0.0985
CGTTTCGC,-0.205
GGGGCCTA,-0.379
CAAGCCCA,-0.172
AGCTATAT,0.233
GCAAAGCC,-0.25
AGACTCGC,-0.22

# Study 5 — technique: RNA Bind-n-Seq; form: RNA; matrix: in vitro; concentration: 365 nM; reference: no-protein control; reading: higher = stronger binding
# Target: RNA binding protein fox-1 homolog 2, RRM domain, GST-SBP tag (RBFOX2, Homo sapiens, UniProt O43251-10, residues 100-194)
# Notes: natural RNA segment, single round, ends assumed
# All sequences stand within: GGGAGUUCUACAGUCCGACGAUC … UGGAAUUCUCGGGUGCCAA
# Construct (chain): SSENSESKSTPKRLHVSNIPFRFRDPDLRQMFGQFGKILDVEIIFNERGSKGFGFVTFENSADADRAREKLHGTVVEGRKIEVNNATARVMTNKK
Oligonucleotide,RBNS enrichment (R)
GAGUCUGUGGGCCAAGUGUCUGCCUAGAAGAGCUGUGUAUGUCUGGCUAGAAGCAGCCAGGCCAUGGAAACAAGUUGAAUACAGCGAUUGGUAGGCCUCAUGUCAGAAUC,0.318
CCCGGAGGAAGCAAACUCUUCGUAUAAAAAAAGCAGGCCAUCUGCUUAACCCUUGGCUCCACCAUAAGGCACUGGGACUCGGAUUUCUCUAUCUGAUAGAGGUAUUUUCU,0.339
AAUCCUGUAGACCUUGACAUUCAGAAAGAUGUGAGCUGCUUACUGAUCAUAUAUGCAUACGUUUCUUUACAGCAGAGGAAACCAUUGUCCACAAAACUGAUGUUCUUUUG,0.599
AGAGCUUCUAUUUGGGUUAAAACAUCCACUCACUUGGUUAGGAGCUAUGCCUCAGAAACUUCCUGGGAGUAAAUAUGGGAACAACUUUUCUAUUAAUACAUCUAAAUUUU,0.432
GGUCACUCGCAACCUGAGUUCACCACAGCGGGAAUAGCUGUGAGAAACACAAGCAAAACAACAAAAUUAAUAAUCUGACGGAGGGGAAUUCUAGAAUUAUAUGCUAAAUG,0.63
GAUUUCCUAACAGAAAGAUAUUUUGAUCUAUUUUCCUAUGGAAUUGUUUCUAUUAUUAUCUUUUAAUUUCUUUUUUUAUUUAAUAGUAAUAGCUCCUUUCUCCUUCCUCU,0.935
UUCAGGCGUGUUUUCUGUGAAUGUUGGAUGAUGAAUUUUUGUCUCUUCUGGUGGAGCUGUGCCUGGCCCUGUAGGCCCAGGGUUGGCUGGAAGGUGACAUCUGUGUUUCG,0.536
UCUCGGGGGAACCGGACAGCAGCUUGGCAAAGGCCUCCCUAAAAGGCCGCAUUUCUGACCUGAGCCCCGGGUCUCGGCUGUUUCGAGCCCCGCCUCGGACUUGCCUUCCC,0.447
CUGAGAUAAGCUUAGCACUUGAGUUGUACAACAGAACACUUGUACAAAAUAGAUUUUAAGGCUAACUUCUUUUCACUGUUGUGCUCCUUUGCAAAAUGUAUGUUACAAUA,3.45
ACUAUAUCCCCACCUCUGCUUGCUUUCUUUCCCUCCCCUCCAAUGAUAAAGAAAAUGAUAAAUUUUCUGUUGUGCAUUCAAUUCUUAUUUUAAAUAAGACUAAGUAUAGG,0.942
CUUAACAGUUGCCCGGUCCUGCUGGCCCCUUUUCCUCUGGCCCCCCUCUUCUGAAACAGGAUGUGCACACAUGGGCCAUAGCCCUAAGGACUCCUGCCAGACCACACAGC,0.339
UCUUCCAUCUGUUUCCUUCCAUUUGCAUAUCUCCAGUAUCCAAAUACCUCCGUCUGACUCCUCAUUCUUCUGCAUUCUUGUACACUCCAUCAGUCAUCUAACAACAAAGA,1.95

# For quick reference, copied from above (study 4):
Oligonucleotide,E-score
GAAGAAGC,-0.121
CTGCTGAA,-0.0413
ATGAGGAC,0.016
GCAAAGCC,-0.25
CACGTGCA,-0.0999
AACCTGAG,-0.145
AGACTCGC,-0.22
CCTGCGAG,-0.153
CGAAAGGC,-0.0572
CAAGAGCG,-0.136
GGGGCCTA,-0.379
GTATTCCA,0.0333
ATTGTCCA,0.145
